Experimental data collected from several papers.
Parts stem from different laboratories: compare values within a part only.

Sample 1 — method: RNA Bind-n-Seq; molecule type: RNA; matrix: in vitro; tested at: 200 nM; notes: whole 134-nt RNA, ends assumed; added: 150 mM KCl; baseline: input library; direction: higher = stronger binding
Target: Ras GTPase-activating protein-binding protein 1, full length (G3BP1, Homo sapiens, UniProt Q13283)
UniProt Q13283, sequence (whole entry, looked up): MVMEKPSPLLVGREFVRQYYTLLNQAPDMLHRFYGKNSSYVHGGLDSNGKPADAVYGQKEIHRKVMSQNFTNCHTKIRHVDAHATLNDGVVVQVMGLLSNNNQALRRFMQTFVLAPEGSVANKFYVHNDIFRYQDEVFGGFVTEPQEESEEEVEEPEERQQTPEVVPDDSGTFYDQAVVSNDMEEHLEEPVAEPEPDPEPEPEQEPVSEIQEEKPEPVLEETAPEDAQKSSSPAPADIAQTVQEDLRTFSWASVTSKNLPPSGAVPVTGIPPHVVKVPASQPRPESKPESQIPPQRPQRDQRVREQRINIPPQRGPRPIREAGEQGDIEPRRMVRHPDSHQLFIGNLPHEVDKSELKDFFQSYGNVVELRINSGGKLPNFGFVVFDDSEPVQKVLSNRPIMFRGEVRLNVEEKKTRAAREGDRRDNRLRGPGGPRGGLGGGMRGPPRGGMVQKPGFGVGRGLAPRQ
Sequence	log2 enrichment
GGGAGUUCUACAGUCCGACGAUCUCAAGUCCUGUGCUACACAUCGUAUGUACCGAAUCGGGAGGGAAAGGGAAAGGGAAAGUAUUAUGUUACGCCGUUCGGAUCUGCACUUCCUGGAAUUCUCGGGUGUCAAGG	0.915
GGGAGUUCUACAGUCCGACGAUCUACUCAGCACAGAAAUUCAGGAGACACAGACAAGUUCUUCCACGAUGUCGUACAGACGAGAACUAGAGAAAUACCGUGACCUGGAUGAAGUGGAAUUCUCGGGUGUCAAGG	0.745
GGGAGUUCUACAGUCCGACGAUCGUCCUGUGCUACACAUCGUAUGUACCGAAUCGGGAAAAAGGGGAAAAAGGGGAAAAAGGAAAGUAUUAUGUUACGCCGUUCGGAUCUGCAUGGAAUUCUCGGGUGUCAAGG	-0.32
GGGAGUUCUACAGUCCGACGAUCUGGCCCUGGUGGCAUGCGGGGAGGAAGAGGUGGCCUCAUGGAUCGUGGUGGUCCCGGGGGAAUGUUCAGAGGUGGCCGUGGUGGAGACAGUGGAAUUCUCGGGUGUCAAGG	0.149
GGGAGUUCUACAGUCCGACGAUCUCAAGUCCUGUGCUACACAUCGUAUGUACCGAAUCGGGGCCGGGGCCGGCCGGGAAAGUAUUAUGUUACGCCGUUCGGAUCUGCACUUCCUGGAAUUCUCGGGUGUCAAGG	-0.352
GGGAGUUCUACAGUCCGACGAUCGCAAAAAGUAAAAACAAAUGGAAAUGCUUCGGAUAGUGGCAGGGGUGGGGGUUGCUAAGGAAAGGGUGGGAUGGGAGUGGGUAAAGAGUUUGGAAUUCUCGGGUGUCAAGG	1.17
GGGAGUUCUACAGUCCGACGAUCCCUGUGCUACACAUCGUAUGUACCGAAUCGGGGAAAGGGGAAAAAAAGGGGUUUUUGGGGAAAGUAUUAUGUUACGCCGUUCGGAUCUGCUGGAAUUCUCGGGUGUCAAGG	0.344
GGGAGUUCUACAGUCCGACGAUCACCAUGCAGGUGGGCAUCUUUGGGAAGUGGGGCAAGGGGGGGAUAGGGAGGGGGGUAACACUUUAGGAACAGGUGGUCCCAGGUCGUUUCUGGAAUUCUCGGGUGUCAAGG	1.24
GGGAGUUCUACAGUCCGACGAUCACCAUGCAGGUGGGCCUCUUUGGGAAGUGGGGCAAGGGGGGGAUAGGGAGGGGGGUAACACUUUGGGAACAGGUGGUCCCAGGUCGUUUCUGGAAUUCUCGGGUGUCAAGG	1.12
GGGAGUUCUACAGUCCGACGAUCAGUCCUGUGCUACACAUCGUAUGUACCGAAUCAAAUUUAAACCCAAAUUUUUUUAAAAAAGUAUUAUGUUACGCCGUUCGGAUCUGCACUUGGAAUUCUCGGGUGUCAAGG	-0.503
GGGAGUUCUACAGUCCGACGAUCUGCGUGCUUGUGUCCUGGAGCUGGAAGAGCGGCUGAGCACGCAGGAGGGCUUGGUGCAAGAGCUUCAGAAAAAACAGGUGGAAUUGCAGGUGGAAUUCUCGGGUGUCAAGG	-0.676
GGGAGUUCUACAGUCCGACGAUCAAGUCCUGUGCUACACAUCGUAUGUACCGAAUCGGGUUUUUGGGUGGGAAAAAGGGAAAGUAUUAUGUUACGCCGUUCGGAUCUGCACUUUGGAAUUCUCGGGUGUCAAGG	0.0881
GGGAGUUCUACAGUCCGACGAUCAGAGAAAAGGAACAGUUCCGUAAGCUCUUUAUUGGUGGCUUAAGCUUUGAAACCACAGAAGAAAGUUUGAGGAACUACUACGAACAAUGGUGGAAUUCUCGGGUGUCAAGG	-1.92
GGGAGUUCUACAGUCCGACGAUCUCCUCAAGUCCUGUGCUACACAUCGUAUGUACCGAAUCGGGAGGAGGAGGGAAAGUAUUAUGUUACGCCGUUCGGAUCUGCACUUCCAGCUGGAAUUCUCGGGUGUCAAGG	-0.417

Sample 2 — method: RNA Bind-n-Seq; molecule type: RNA; matrix: in vitro; tested at: not given; baseline: input RNA pool; direction: higher = stronger binding
Target: RING finger protein unkempt homolog, zinc fingers 1-6, GST-SBP tag (UNK, Homo sapiens, UniProt Q9C0B0, residues 30-357)
UniProt Q9C0B0, sequence (30-357, looked up): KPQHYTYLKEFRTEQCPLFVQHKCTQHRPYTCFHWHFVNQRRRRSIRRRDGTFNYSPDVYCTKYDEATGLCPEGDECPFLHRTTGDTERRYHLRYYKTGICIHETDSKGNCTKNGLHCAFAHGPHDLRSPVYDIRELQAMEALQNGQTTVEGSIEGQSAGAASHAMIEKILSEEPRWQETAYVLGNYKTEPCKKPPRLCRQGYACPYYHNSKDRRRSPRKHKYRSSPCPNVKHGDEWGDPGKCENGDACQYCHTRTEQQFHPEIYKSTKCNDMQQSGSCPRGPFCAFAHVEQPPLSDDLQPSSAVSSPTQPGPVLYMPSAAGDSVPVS
Notes: RNA with constant flanks, human-mouse chimeric sites, ends assumed
Sequence	bound/input enrichment [ratio]
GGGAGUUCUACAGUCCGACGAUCCUGGCCUGGCCCUCCCCAGGGGCCUCCUUUCGUAUAGUCACUGCUUCUGCUACGGAUACUUUCAGCUGCAACUCCCUGCAGGGUGGGGCACCCAUUUCAGGCAGAAGGUUUUGGUACCCUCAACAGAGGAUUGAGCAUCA	0.337
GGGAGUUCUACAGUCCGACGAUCCGCGUCCUCUCGCUGCUGCGGAGCCCGAGCUGGGAACCAUUCCGGGACGACUGGUACGCACACAGCCGCCUCUUCGAUCAAGCUUUCGGGGUGCCCCGGUUGCCCGAUGAGUGGUCGCAGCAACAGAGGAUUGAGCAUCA	0.106
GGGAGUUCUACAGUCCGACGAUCGGCUGCUACUAUUCUCCCUGGAGUGGCUGGAGUUCCCGCCGGAGCGCGGCCAGACUAAUUUUAGAAAAUGCCAAGUAGGAAGUUUGUUGAGGGUGAAGUGGUCAGAGGCCGAUGGCCUGGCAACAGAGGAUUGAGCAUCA	5.65
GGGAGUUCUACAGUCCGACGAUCGGAAGUACAAUGAUGGAGAUUGAUGGUGAUAAAGGCAAGCAGGGCGGGCCCACCUACUACAUAGACACCAAUGCCCUCCGCGUGCCCAGGGAGAAUAUGGAGGCCAUCUCACCACUCAAGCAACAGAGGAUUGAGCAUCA	0.257
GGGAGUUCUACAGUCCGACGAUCGCAGGAUCUUCUAAGUACCAGUGGGACAUUAUGAAAUCCCUUGGCCUCUCUGAUGACGACAUAGUGAAGUUUUCUGAAGCAGAGCACUGGCUUGAUUAUUUCCCGCCACUGGCCGUUCAGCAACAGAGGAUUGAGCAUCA	0.139
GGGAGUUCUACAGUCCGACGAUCUCAGGAACCCAGACAAACAUGAAUGUAAAUGAAGUCAUUAGCAAUAGAGCAAUUGAAAUGUUAGGAGGUGAACUUGGCAGCAAGAAGCCUGUGCAUCCCAAUGAUCAUGUUAACAAAAGCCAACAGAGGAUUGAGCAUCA	0.695
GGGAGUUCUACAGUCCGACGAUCUUUGUUUGUAACUUAUCUGUAAAAGGUUCCCCCCCCCACUGUCAAAAAAAUAUGCAUGUAUAGUAAUUAGGACUUCAUUCCUCCAUGUUUUCUUCCCUUAUCUUACUGUCAUUGUCCUUACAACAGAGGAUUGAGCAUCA	1.66
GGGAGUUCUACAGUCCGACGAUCUCCCAAAUCCAGCAGCUAGAAGGAGCCUUGAGACAAAGCCUGGAAAUACAGGGAAGGCGAUAACAUUGUACAUUGGUUUACAUUUUUUCCCCCUGUGGAUUUUUCUAGAGGUCAUAGUGCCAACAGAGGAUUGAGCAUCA	0.511

Sample 3 — method: aptamer microarray, sandwich; molecule type: DNA with 2'F-ANA; matrix: in vitro; tested at: 200 nM; added: Cy3 exosite-II aptamer, 400 nM; direction: higher = stronger binding; sequence: GGTTGGTGTGGTTGG
Target: Prothrombin, mature alpha-thrombin (F2, Homo sapiens, UniProt P00734)
Notes: whole 15-mer aptamer, many near background
Modification	mean fluorescence intensity
2'F-ANA at 3 4 5 6 7 9 11 14	49.2 a.u.
2'F-ANA at 1 3 4 6 7 8 10 13 15	57 a.u.
2'F-ANA at 1 4 8 10 12 13	50.3 a.u.
2'F-ANA at 4 7 8 9	343 a.u.
2'F-ANA at 1 3 4 8 11	227 a.u.
2'F-ANA at 2 4 7 8 11 13	279 a.u.
2'F-ANA at 3 5 7 9 11 12 14	57.1 a.u.
2'F-ANA at 1 2 3 6 7 8 9 12 13 15	331 a.u.
2'F-ANA at 2 3 9 12 13	922 a.u.
2'F-ANA at 1 2 3 5 7 8 11 15	57.6 a.u.
2'F-ANA at 1 6 7 8 11 12	335 a.u.
2'F-ANA at 2 5 8 10 13 14	48.1 a.u.
2'F-ANA at 3 8 10 13 15	479 a.u.
2'F-ANA at 2 3 4 8 13 14 15	257 a.u.
2'F-ANA at 1 2 3 4 5 6 15	61.4 a.u.
2'F-ANA at 1 4 5 6 8 9 11 12 15	79.8 a.u.
2'F-ANA at 3 5 9 10 11 15	58.8 a.u.
2'F-ANA at 3 4 5 9 10 11 12 14 15	49.4 a.u.
2'F-ANA at 1 5 7 9 10 11 12 13 14	43.7 a.u.
2'F-ANA at 1 2 4 6 8 11 12	200 a.u.
2'F-ANA at 5 7 11 13	93.4 a.u.
2'F-ANA at 1 3 6 7 8 9 10 11 12 15	95.1 a.u.
2'F-ANA at 4 5 6 7 8 14	51.7 a.u.
2'F-ANA at 1 3 4 6 10 11 13 14 15	53.2 a.u.

Sample 4 — method: RNA Bind-n-Seq; molecule type: RNA; matrix: in vitro; tested at: 365 nM; baseline: no-protein control; direction: higher = stronger binding
Target: RNA binding protein fox-1 homolog 2, RRM domain, GST-SBP tag (RBFOX2, Homo sapiens, UniProt O43251-10, residues 100-194)
Notes: natural RNA segment, single round, ends assumed
Residues (chain): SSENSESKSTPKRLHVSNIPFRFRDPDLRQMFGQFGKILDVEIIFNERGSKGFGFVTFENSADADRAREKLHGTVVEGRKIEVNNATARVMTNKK
Sequence	RBNS enrichment (R)
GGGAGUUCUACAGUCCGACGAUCAUUUGUACAAAUGCAGCAUCUUCAUUCUUUCUGAGAAGACAAGAUGGUUUUCUUUACAUGAACAAAUGAACAAAAGAGAUCCUAGAUCCAUAACGUAGCUAAGGCAUCUAUGGAAUUCUCGGGUGCCAA	0.255
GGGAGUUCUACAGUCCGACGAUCUCUUUAUUAGUCUUUUUAAUGCCUCUAACCCUGUGGAAGCUGUCUGCACGCAGUAUCCCACUGUAGAGGAGAGCUCAGAGUGGGGGAGUAGGAGCCCUUGCUUGGGGUACUGGAAUUCUCGGGUGCCAA	0.529
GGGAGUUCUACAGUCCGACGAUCUGGCGCCGUGUCAGGGAAGACCUUGUACACCGGGAAGCAAGCGUGGCUUCAGGCCGAGCGUGGAGUAGCUCUGCAGUCUGCAUGAAUCGGCCUUUGAUCUGGCCAAGUCUUGGAAUUCUCGGGUGCCAA	3.32
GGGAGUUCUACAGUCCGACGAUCUAAGAGUUGUGCUAGAUGGCUUCCAUGAUCUUGUCAAACCUAGAAAUUCCAAAAUCUCGAGGAAGCUAGAAAACACAAUCCUGUGGCAGUAAGACAUUCUCCAGUGUUCAUGGAAUUCUCGGGUGCCAA	0.211
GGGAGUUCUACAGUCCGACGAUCUUGCGUUUGAGCUCUCCAGGAUUUUACAUUUUUGGGUAACCUCAGUGAUUCCCAUUGGUGUAGGAAAUGAGACCCUCUCUGAAGCUGAGGAGAGCACGUUGAUCUGAACUUGGAAUUCUCGGGUGCCAA	0.544
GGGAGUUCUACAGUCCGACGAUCUUGAUGUUAGCAAAUCAUGGAAUGUUCUAAGUCUCUGAGGGUUUACUGUGAAGUGUUGAGGACAGUGUUGAUGCCUAACUAGUUUUCUUAGAUGGAAACAGAGACAUUGAUGGAAUUCUCGGGUGCCAA	0.506
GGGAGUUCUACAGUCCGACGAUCGUCCCUGGUGGCUUCUGGAGGGAAGCUGUACCUCUAGAUACAUUUUUCUUUUCCUUCAGAGACCGUGACAGAGGGAGCUCUGUCAGCCGGAAGUUCAGGCCACCAGACGUUGGAAUUCUCGGGUGCCAA	0.254
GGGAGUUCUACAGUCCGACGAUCCGACCACCCUCUGCCCCUCCUGCAGUCAGAACCCGAGUAGUGCAAGAACGGCCACCCGGUUUUGCCAGCGUUCAGCGUCUGCCCAUGGACCCAUAAGGCACAUUAGCGUUUGGAAUUCUCGGGUGCCAA	0.439
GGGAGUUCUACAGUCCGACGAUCGUGUGACUUGGCUAGAGUUGGGAGUUCCCCCAAAAUAAACGUGUCCCCAUUUUACCAGAACCAAACCUCAACACAGCGAAGCUGUACUGUCUUUGUGUGGCAAAGAUGUUUGGAAUUCUCGGGUGCCAA	0.655
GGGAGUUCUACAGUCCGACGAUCUUAUAAAAUGAUUACUUUGUAUAUCUCAUUAUUCCUAUUUUGGAAUAAAAACUGACCUUCUUUAAUCAUAUACUUGUCUUUUGUAAAUAGCAGCUUUUGUGUCAUUCUCCUGGAAUUCUCGGGUGCCAA	0.512
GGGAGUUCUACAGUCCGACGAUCAGUAGGUCAUUAAAUAGCUUAGUGAUUUAUCCUCAUAUAGGGCUUAUAAACCCUGUAUGUGUUUAUAUGUGCUUCACAGAGUUCGUGUCAGGCUCAAAGGAGAUAUGUAUUGGAAUUCUCGGGUGCCAA	0.308
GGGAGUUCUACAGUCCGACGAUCAUGAUUGCUGCUGACAGGAACACCUGGAUCUCAAGAGCUUUUUAUGACAGGUGGACAUCUGUGUCAUUUUUCCUUGUUCCCUCAUCCAUCCAUCCAUCCAUCCAUCCAUCUGGAAUUCUCGGGUGCCAA	0.502

Excerpt of the above (sample 3):
Modification	mean fluorescence intensity
2'F-ANA at 3 5 7 9 11 12 14	57.1 a.u.
2'F-ANA at 5 7 11 13	93.4 a.u.
2'F-ANA at 3 8 10 13 15	479 a.u.
2'F-ANA at 2 5 8 10 13 14	48.1 a.u.
2'F-ANA at 3 4 5 6 7 9 11 14	49.2 a.u.
2'F-ANA at 1 4 5 6 8 9 11 12 15	79.8 a.u.
2'F-ANA at 1 2 3 6 7 8 9 12 13 15	331 a.u.
